Assay results of several laboratories.
Compare with care: the assays were run in different laboratories. ± gives the spread as reported.
UniProt P08183, sequence (whole entry, looked up): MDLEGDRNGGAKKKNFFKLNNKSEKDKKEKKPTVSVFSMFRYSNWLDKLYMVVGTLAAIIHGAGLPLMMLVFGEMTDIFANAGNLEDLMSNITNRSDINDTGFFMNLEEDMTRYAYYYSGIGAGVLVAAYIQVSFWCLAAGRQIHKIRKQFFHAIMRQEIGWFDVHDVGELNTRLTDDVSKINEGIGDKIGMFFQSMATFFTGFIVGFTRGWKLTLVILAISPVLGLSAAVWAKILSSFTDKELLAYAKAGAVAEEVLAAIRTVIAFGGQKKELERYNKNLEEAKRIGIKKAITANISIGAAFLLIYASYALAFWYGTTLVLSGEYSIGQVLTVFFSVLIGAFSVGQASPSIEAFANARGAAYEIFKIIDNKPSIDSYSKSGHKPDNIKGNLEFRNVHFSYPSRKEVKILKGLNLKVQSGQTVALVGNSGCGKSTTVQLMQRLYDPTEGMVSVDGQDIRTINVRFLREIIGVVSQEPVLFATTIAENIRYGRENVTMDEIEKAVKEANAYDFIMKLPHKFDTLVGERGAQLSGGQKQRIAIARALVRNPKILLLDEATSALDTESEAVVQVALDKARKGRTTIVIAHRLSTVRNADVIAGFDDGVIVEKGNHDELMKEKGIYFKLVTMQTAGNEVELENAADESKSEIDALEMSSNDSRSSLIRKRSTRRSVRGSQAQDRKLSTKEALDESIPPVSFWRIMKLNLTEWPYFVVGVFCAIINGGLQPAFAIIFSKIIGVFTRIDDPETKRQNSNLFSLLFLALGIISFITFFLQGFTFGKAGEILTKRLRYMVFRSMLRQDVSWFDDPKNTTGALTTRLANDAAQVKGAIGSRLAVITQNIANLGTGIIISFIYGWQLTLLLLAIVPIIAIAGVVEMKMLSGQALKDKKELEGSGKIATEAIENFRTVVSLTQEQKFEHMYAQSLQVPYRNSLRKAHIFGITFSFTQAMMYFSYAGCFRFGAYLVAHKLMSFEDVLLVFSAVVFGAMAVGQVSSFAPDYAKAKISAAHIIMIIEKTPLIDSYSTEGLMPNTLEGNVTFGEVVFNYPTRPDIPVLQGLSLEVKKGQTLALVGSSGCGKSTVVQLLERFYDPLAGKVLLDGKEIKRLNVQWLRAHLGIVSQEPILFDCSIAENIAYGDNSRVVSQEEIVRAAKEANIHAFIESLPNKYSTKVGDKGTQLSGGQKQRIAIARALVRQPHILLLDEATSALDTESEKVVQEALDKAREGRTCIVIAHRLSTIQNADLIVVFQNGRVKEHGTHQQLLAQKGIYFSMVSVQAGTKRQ

Under “serum potassium elevation incidence”, `C[C@]1(CO)Cc2ncn(-c3ccc(C#N)c(Cl)c3)c2C(=O)O1` is recorded as 8.3% (refers to: potassium, serum, ≥5.0 mmol/L; human; European single ascending dose).
The cell viability of `CC(=O)OC[C@H]1O[C@@H](Oc2cc(O)cc3cc4oc(C)cc(=O)c4c(O)c23)[C@H](O)[C@@H](O)[C@@H]1O` is reported as 132 ± 12% (HK-2 co-cultured with HepaRG; MTT; 33.33 µM, 24 h; reference: untreated control).
The recovery of `CC(C)CC(=O)OC[C@H]1O[C@@](C#N)(c2ccc3c(N)ncnn23)[C@H](O)[C@@H]1O` is reported as 70% (ABCB1 (Homo sapiens, UniProt P08183); apical to basolateral transport; Caco-2; 90 µM, 2 h, together with: verapamil 100 µM).
`O=c1ccc2ccccc2o1` has a chance response of 0.8% (NHEK; AhR translocation; concentration not given, 1 h).
The cell viability of `O=C1c2ccccc2C(=O)c2ccccc21` is reported as 24.3 ± 4.19% (HepaRG co-cultured with HK-2; MTT; 266.67 µM, 48 h; reference: untreated control).
For `CC(=O)N1CCC(C(=O)N2CCN3C(=O)c4cc(-c5ccccc5)ccc4NC(=O)C3C2)CC1` (stereo not shown), “revertants per plate” read 12.5 (Salmonella typhimurium; TA1537; 1.58 µg/plate).
The diarrhoea incidence of `CO[C@H]1C[C@@H]2CC[C@@H](C)[C@@](O)(O2)C(=O)C(=O)N2CCCC[C@H]2C(=O)O[C@H]([C@H](C)C[C@@H]2CC[C@@H](OC(=O)NCCOCCOCCOCCOCCOCCOCCOCCOCCC(=O)N3CCc4cc(Cn5nc(-c6ccc7oc(N)nc7c6)c6c(N)ncnc65)ccc4C3)[C@H](OC)C2)C[C@@H](O)[C@H](C)/C=C(\C)[C@@H](O)[C@@H](OC)C(=O)[C@H](C)C[C@H](C)/C=C/C=C/C=C/1C` is reported as 25% (patients with advanced solid tumours; intravenous, 16 mg weekly, any grade).
For `Cc1cc2c(c(O)c1O)C(=O)c1c(O)cc(O)cc1C2=O`, the cell viability was 165 ± 29.3% (HK-2 co-cultured with HepaRG; MTT; 266.67 µM, 24 h; reference: untreated control).
Under “large unstained cells”, `CCc1ccc(CC/C=C/c2ccc3c(c2)C(=O)CC3)cc1` is recorded as 1.47% (Sprague-Dawley rat, male, blood; oral, 120 mg/kg/day, 14 days).
`COc1cc2c(Oc3ccc4[nH]c(C)cc4c3F)ccnc2cc1OCC1(N)CC1` — result for “grade 3 Fever”: 0% (paediatric recurrent refractory sarcoma; concentration not given, whole group).

Some of these lines once more:
For `CC(=O)N1CCC(C(=O)N2CCN3C(=O)c4cc(-c5ccccc5)ccc4NC(=O)C3C2)CC1` (stereo not shown), “revertants per plate” read 12.5 (Salmonella typhimurium; TA1537; 1.58 µg/plate).
